Measurements from different studies.
A part holds a random share of what one study measured. Values joined by “and” are separate records of one study, mostly repeats; a detail may differ.

Set 1
Cell line: mouse MPNST tumor cells
Method: high-content immunofluorescence imaging
Measured: nuclear SOX9
Tested at: 10 µM
Time: 12 h
Notes: mean of 2 replicates
Reference: DMSO control
Direction: higher = more nuclear SOX9
Measurement: nuclear SOX9 intensity
CNC(=O)Oc1ccc2c(c1)[C@]1(C)CCN(C)[C@@H]1N2C: 104 % of DMSO
CCOC(=O)Nc1ccc(NCc2c(C)cc(C)cc2C)cc1N: 180 % of DMSO
CN[C@@H]1Cc2cccc3[nH]c(=O)n(c23)C1: 95 % of DMSO
COc1cc2c(cc1O)C(CCc1ccc(Cl)cc1)N(C)CC2 (stereo not shown): 142 % of DMSO
O=C(N[C@H]1CN2CCC1CC2)c1ccc(Cl)cc1: 94.6 % of DMSO
CN1CC2CN(c3ccc(-c4ccccc4)nn3)CC2C1 (stereo not shown): 118 % of DMSO
Cc1cc(Cl)ccc1OCCNC(=O)c1cccs1: 111 % of DMSO

Set 2
SMILES: CNC(=O)c1ccc(-c2cnn3ccc(C(=O)N(C)c4ccc(Cl)c(C(=O)OC)c4)cc23)cc1
Organism: Cryptosporidium parvum
Species: neonatal calves
Dose: dose not given
Direction: direction not given
Measurement: fecal consistency score
day 5, second reading: 1 and 2
day 9 post-treatment: 1 and 2 and 3
day 0 post-treatment: 3
day 7 post-treatment: 1 and 2
day 14 post-treatment: 1 and 2

Set 3
Organism: Sarcocystis neurona
Effect on: parasite growth
Tested at: 10 µM
Time: 96 h
Measurement: inhibition
CC[C@@H](C(N)=O)N1CCCC1=O: -14%
C=CCN1CC[C@]23c4c5ccc(O)c4O[C@H]2C(=O)CC[C@@]3(O)[C@H]1C5: -9.6%
C[C@]12CC[C@H](O)CC1=CC[C@@H]1[C@@H]2CC[C@]2(C)C(=O)CC[C@@H]12: -7.2%
CC(C)CC(N(C)C)C1(c2ccc(Cl)cc2)CCC1 (stereo not shown): -19.3%
NC(=NCc1ccc(Cl)cc1)SCCCc1cnc[nH]1: -0.8%
CC(O)(CS(=O)(=O)c1ccc(F)cc1)C(=O)Nc1ccc(C#N)c(C(F)(F)F)c1 (stereo not shown): -15.7%

Further values, each from its own experiment
O=c1c2c(Cl)cccc2nc([C@@H]2CCCN2)n1-c1cccnc1
remaining compound (human, microsomes or S9; 2 µM, 0.5 h): > 99.9%

For quick reference, copied from above (set 1):
CCOC(=O)Nc1ccc(NCc2c(C)cc(C)cc2C)cc1N: 180 % of DMSO
